# Published values collected from several papers.
# Compare with care: the assays were run in different laboratories. Several values in a cell are separate wells, animals, samples, runs or records.
# Target: Calcium/calmodulin-dependent protein kinase type II subunit beta (CAMK2B, Homo sapiens, UniProt Q13554)
Structure (SMILES),assay,setting,how to read,quantity,result
COc1c(OCCCN2CCOCC2)ccc2c1N=C(NC(=O)c1cnc(N)nc1)N1CCN=C21,"kinase activity, inhibitor",1 µM,relative to: untreated control,remaining activity,104%
Cc1ccc(-c2c(/C=C(\C#N)C(=O)NC(C)C)n(CCCO)c3ncnc(N)c23)cc1,"cell-free assay, competition with immobilised ligand",1 µM,,remaining binding,94%
COc1ccc(NC(=O)Nc2ccc3c(c2)C(=O)N(C(C)CO)CC(C)C(CN(C)Cc2ccc4c(c2)OCO4)O3)cc1 (stereo not drawn),"kinase activity, KinaseProfiler","0.03 µM, species human",relative to: control,remaining activity,107%
Nc1ncc2c(n1)-c1c([nH]c3ccc(C4=CCOCC4)cc13)CCC2,"binding, competition with immobilised ligand",1 µM,,remaining binding,92%
C=CC(=O)N1CCCC(n2c(=O)c3ncccc3n(Cc3ccc(Oc4ccccc4)cc3)c2=O)C1 (stereo not drawn),"cell-free assay, competition with immobilised ligand",1 µM,,remaining binding,100%
O=C=[N][Ru-4]123([n]4c5ccc(O)cc5c5c6c(c7cc(F)c[n+]1c7c54)C(=O)NC6=O)[S+]1CC[S+]2CC[S+]3CC1 (stereo not drawn),enzyme activity,"100 nM, human enzyme, added: 10 µM ATP",relative to: untreated,remaining activity,63%
O=c1c(-c2ccc(Cl)c(CN3CCOCC3)c2)coc2cc(O)ccc12,"enzyme activity, inhibitor",1 µM,,remaining activity,108%
Cc1cccc(O[C@H]2CCC[C@@H](C(C)CNCc3ccncc3)C2)c1 (relative stereo),"enzyme activity, inhibitor",1 µM,,inhibition,1%
COc1cc(Nc2nc(C)cc(-c3cnn4nc(OC)ccc34)n2)cc(C(F)(F)F)c1,inhibitor,1 µM,relative to: control,remaining activity,93%
NC(=O)C[C@H]1CCc2sc3ncnc(O[C@H]4CC[C@H](N5CCOCC5)CC4)c3c21,"enzyme activity, inhibitor",10 µM,,inhibition,9%
CCN1CCN(Cc2ccc(C(=O)Nc3ccc(C)c(NCc4cnc5[nH]ccc5c4OC)c3)cc2C(F)(F)F)CC1,"binding, competition with immobilised ligand",1 µM,,remaining binding,93%
C=CC(=O)Nc1cccc(-c2cnc3[nH]cc(C(=O)NC(C)(C)C)c3n2)c1,"enzyme activity, inhibitor",0.1 µM,,inhibition,1%
COc1c(Cl)cccc1Nc1c(-c2ccncc2C#C[C@@]2(C)CCCN2C(=O)/C=C/CN(C)C)[nH]c2c1C(=O)NCC2,"cell-free assay, competition with immobilised ligand",3 µM,,remaining binding,100%
COCC12C(=O)NC3C4(C(OC)CC1O)C1CC5(O)C(OC)C(O)C(OC(C)=O)(C1C5OC(=O)c1ccccc1)C3(O)C(OC)C24 (stereo not drawn),"kinase activity, inhibitor, ProQinase kinase profiling",25 µM,relative to: control,remaining activity,83% and 102%
Nc1ncc(-c2cc(-c3cnn(CC(F)(F)F)c3)ncc2F)nc1C(=O)NC1CNCC(F)C1 (stereo not drawn),enzyme activity,1 µM,relative to: DMSO control,remaining activity,92.6%

# Repeated from above:
Structure (SMILES),assay,setting,how to read,quantity,result
NC(=O)C[C@H]1CCc2sc3ncnc(O[C@H]4CC[C@H](N5CCOCC5)CC4)c3c21,"enzyme activity, inhibitor",10 µM,,inhibition,9%
